Assay results gathered from unrelated publications.
Compare with care: the assays were run in different laboratories. Several values in a cell are separate wells, animals, samples, runs or records. ± marks the error that the study gave.
ESR2: Estrogen receptor beta (ESR2, Homo sapiens, UniProt Q92731)
Chain of UniProt Q92731 (whole entry, looked up): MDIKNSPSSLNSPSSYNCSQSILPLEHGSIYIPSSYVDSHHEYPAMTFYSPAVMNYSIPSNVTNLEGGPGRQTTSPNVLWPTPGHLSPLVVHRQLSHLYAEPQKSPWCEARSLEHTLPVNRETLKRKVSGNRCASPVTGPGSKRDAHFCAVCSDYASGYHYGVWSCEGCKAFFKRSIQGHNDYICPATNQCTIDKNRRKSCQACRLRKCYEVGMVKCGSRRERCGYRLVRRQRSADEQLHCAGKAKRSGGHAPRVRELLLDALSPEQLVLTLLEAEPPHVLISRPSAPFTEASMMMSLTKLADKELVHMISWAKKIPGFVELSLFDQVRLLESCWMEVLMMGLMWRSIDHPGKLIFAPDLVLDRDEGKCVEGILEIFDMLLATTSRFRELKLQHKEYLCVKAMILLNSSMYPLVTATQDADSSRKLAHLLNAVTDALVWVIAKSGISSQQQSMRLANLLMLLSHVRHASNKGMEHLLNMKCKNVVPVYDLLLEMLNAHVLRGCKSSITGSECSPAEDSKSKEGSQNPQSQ
GPR84: G-protein coupled receptor 84 (GPR84, Homo sapiens, UniProt Q9NQS5)
Chain of UniProt Q9NQS5 (whole entry, looked up): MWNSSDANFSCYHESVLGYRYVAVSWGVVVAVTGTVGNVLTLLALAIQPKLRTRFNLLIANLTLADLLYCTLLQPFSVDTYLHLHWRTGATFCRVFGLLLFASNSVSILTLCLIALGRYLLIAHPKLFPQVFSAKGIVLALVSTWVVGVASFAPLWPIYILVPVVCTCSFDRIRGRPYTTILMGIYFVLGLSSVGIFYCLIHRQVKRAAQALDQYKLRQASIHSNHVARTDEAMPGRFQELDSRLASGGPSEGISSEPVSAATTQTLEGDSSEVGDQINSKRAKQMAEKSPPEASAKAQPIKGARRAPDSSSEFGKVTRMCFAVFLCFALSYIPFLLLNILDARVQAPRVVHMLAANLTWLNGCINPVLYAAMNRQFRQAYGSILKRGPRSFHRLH
Chain of UniProt Q92633 (whole entry, unmodified, looked up): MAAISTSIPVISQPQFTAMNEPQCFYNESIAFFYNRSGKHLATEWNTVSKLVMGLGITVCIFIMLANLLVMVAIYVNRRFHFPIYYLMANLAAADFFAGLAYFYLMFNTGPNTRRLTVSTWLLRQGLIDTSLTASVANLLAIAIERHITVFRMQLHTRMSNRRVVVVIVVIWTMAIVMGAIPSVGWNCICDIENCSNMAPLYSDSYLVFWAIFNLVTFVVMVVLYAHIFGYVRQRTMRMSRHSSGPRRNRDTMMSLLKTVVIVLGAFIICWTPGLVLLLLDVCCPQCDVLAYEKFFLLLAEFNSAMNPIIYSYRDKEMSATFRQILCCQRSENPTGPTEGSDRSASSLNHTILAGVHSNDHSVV
Chain of UniProt P34995 (whole entry, unmodified, looked up): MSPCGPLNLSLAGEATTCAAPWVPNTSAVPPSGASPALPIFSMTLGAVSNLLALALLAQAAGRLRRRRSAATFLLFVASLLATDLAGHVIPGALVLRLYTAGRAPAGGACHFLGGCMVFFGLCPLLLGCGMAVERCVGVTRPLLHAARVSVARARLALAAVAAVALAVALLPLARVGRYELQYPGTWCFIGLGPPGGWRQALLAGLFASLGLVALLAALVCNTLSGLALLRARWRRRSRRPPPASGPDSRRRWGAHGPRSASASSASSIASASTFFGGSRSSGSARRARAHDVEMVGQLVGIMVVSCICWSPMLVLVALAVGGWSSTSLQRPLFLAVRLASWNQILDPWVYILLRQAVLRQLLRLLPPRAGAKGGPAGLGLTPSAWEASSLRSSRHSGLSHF
Chain of UniProt Q96GD4 (whole entry, looked up): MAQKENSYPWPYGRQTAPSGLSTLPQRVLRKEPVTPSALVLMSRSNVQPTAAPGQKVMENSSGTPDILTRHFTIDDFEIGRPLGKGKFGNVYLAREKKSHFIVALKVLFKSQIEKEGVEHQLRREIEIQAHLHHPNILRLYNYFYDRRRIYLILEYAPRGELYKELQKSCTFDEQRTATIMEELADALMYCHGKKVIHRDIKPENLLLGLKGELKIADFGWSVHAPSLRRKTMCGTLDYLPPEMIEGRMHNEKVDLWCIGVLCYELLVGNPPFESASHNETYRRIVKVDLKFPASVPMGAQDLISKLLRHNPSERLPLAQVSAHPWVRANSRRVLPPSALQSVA

Compound	target	test	system	conditions	EC50
COc1cc(Nc2ncc3c(n2)-c2ccc(Cl)cc2C(c2c(F)cccc2OC)=NC3)ccc1C(=O)NCCOCCOCCNC(=O)COc1cccc2c1C(=O)N(C1CCC(=O)NC1=O)C2=O (stereo not drawn)	Aurora kinase B (AURKB, Homo sapiens, UniProt Q96GD4)	NanoBRET target engagement	HEK293 expressing NanoLuc fusion	2 h	1420 ± 135 nM
O=C(/C=C/c1ccc(O)cc1)c1ccccc1	ESR2	array formation, agonist	GFP-ERβ PRL-HeLa	1 h	741 nM
CCCCCCCCN(C)c1cc(=O)[nH]c(=O)[nH]1	GPR84	agonist			631 nM
CCCCC[C@H](O)/C=C/[C@H]1[C@H](O)CC(=O)[C@@H]1C/C=C\CCCC(=O)O	PTGER1 (Homo sapiens, UniProt P34995, Q344A)	IP1 accumulation, agonist	AD293	EP1 Q344A mutant	104 nM
O=c1cc(NCCOc2ccccc2)[nH]c(=O)[nH]1	GPR84	agonist			741 nM
COc1cc(O)c2c(=O)c(O[C@@H]3O[C@H](CO)[C@@H](O)[C@H](O)[C@H]3O)c(-c3ccc(O[C@@H]4O[C@H](CO)[C@@H](O)[C@H](O)[C@H]4O)cc3)oc2c1	ESR2	array formation, agonist	GFP-ERβ PRL-HeLa	1 h	5150 nM
CCc1oc2c([C@H](CO)N(CC)CC)cccc2c1C	LPAR1 (Homo sapiens, UniProt Q92633, W210A)	G-protein dissociation, agonist, NanoBiT	human cells		7.2 nM and 7.21 nM
COc1cc2oc(-c3ccccc3)cc(=O)c2c(OC)c1OC	ESR2	array formation, agonist	GFP-ERβ PRL-HeLa	1 h	1750 nM
O=c1cc(NCCc2ccc(Cl)cc2Cl)[nH]c(=O)[nH]1	GPR84	cAMP			43.7 nM

For quick reference, copied from above:
Compound	target	test	system	conditions	EC50
O=c1cc(NCCc2ccc(Cl)cc2Cl)[nH]c(=O)[nH]1	GPR84	cAMP			43.7 nM
